# Published values collected from several papers.
# ± marks the error that the study gave.
SMILES,target or system,test system,setting,measurement,result
COC(=O)[C@@H]1C(c2nc3ccccc3o2)=Cc2cc3c(cc2[C@H]1c1cc(OC)c(OC)c(OC)c1)OCO3,Leishmania infantum,"promastigote, iRFP",,EC50,19.4 ± 2.1 µM
Cc1ncc(CCc2ccc3c(c2)c(=O)c(C(N)=O)cn3-c2ccc(F)cc2)cn1,,"rat, brain","iv, 0.2 mg/kg, 15 min, cassette dosing",concentration,5.6 nM
Cc1cc(NC(=O)c2cccc(NC(=O)C3=CC(C)(C)CCC3=O)c2)ccc1Nc1nccc(-c2cccnc2)n1,,rat plasma,up to 120 min,plasma stability,stable
Cc1c(-c2ccccc2)nn2c(=O)cc(-c3cccc(-c4nnn[nH]4)c3)[nH]c12,,human liver microsomes,"1 µM, 30 min",remaining compound,88.4%
Cc1n[nH]c(C)c1CCOC(=O)c1cccc2c1oc(=O)n2C,,"BALB/c mouse, plasma","intravenous, 2 mg/kg",clearance,4.38 mL/min/kg
NC(=O)c1cn(-c2ccc(F)cc2)c2ccc(CCc3ccncc3)cc2c1=O,,"rat, plasma",,unbound fraction,0.057
CCCSc1nc(N[C@@H]2C[C@H]2c2ccc(F)c(F)c2)c2nnn([C@@H]3C[C@H](O)[C@@H](O)[C@H]3O)c2n1,,"rat, female, plasma","oral, 20 mg/kg/day ticagrelor, week 52",AUC,9.3 µM·h
CC(C)n1nnc(-c2cc(O)cc(Nc3ncnn4ccc(CN5CCC(N)CC5)c34)c2)n1,,"mouse, brain","subcutaneous, 10 mg/kg, 90 min",total brain concentration,0.04 ± 0.03 µM
COc1ccc(CC(=O)OCc2ccc(-n3cccn3)cc2)cc1F,,"BALB/c mouse, plasma","oral, 10 mg/kg",Tmax,1.12 h
NC(=O)c1cn(-c2ccc(F)cc2)c2ccc(NCc3cccnc3)cc2c1=O,,rat,"iv, 0.2 mg/kg, 15 min, cassette dosing",Kp brain/plasma,0.04
COC(=O)[C@@H]1C(C=Nc2cc(Cl)ccc2O)=Cc2cc3c(cc2[C@H]1c1cc(OC)c(OC)c(OC)c1)OCO3,Leishmania infantum,"promastigote, iRFP",,EC50,14.2 ± 1.8 µM
Nc1ncc(-c2ccc3ncnc(N4CCc5cc(F)c(Cl)cc54)c3c2)cn1,,"CD1 mouse, plasma","intravenous, 5 mg/kg",AUC(0-t),762 ng·h/mL
